Experimental data gathered from unrelated publications.

O=C(NCCN1C(=O)C=CC1=O)[O][Pt-2]12([O]C(=O)NCCN3C(=O)C=CC3=O)([NH2+][C@@H]3CCCC[C@H]3[NH2+]1)[O]C(=O)C(=O)[O]2 has a Tmax of 48 h (ICP-MS; BALB/c mouse CT26 allograft, tumour; intravenous, dose not given).
Clc1ccc2ccc3[n+](c2c1)[Ir-3]12([c]4ccccc4-3)([c]3ccccc3-c3ccc4ccc(Cl)cc4[n+]31)[n+]1ccccc1-c1cccc[n+]12.F[P-](F)(F)(F)(F)F has a Tmax of 4 h (ICP-MS, item: iridium; mouse, serum; i.p., 2.0 mg/kg).
With Oc1cc(F)ccc1Oc1ccccc1 the Tmax was 0.75 h (CD-1 mouse, plasma; subcutaneous, 100 mg/kg).
COCc1nc(C(F)(F)F)[nH]c1-c1cc(C(=O)N2CC(c3ccc(C#N)cc3)C2)c(C)cc1C gave a Tmax of 1 h (mouse; oral, 10 mg/kg).
The Tmax of C[C@@H](COc1ccc(F)cc1)C(=O)n1nc(N)c2ccc(CO)cc21 is reported as 0.25 h (C57BL/6 mouse, plasma; ip, 10 mg/kg).
For N#CC1(c2ccc3c(N)ncnn23)OC(COP(=O)(O)O)C(O)C1O (centres unmarked), the Tmax was 1 h (LC-MS/MS; CD-1 mouse male, lung; oral, 100 mg/kg of remdesivir).
The Tmax of CC=C1C(OC2OC(CO)C(O)C(O)C2O)OC=C(C(=O)OC)C1CC(=O)OCC1OC(OCCc2ccc(O)cc2)C(O)C(O)C1O (centres unmarked) is reported as 0.167 h (PGF tumour-bearing BALB/c mouse, plasma; oral, 109.2 mg/kg).
The Tmax of O=C(Nc1nccs1)C(c1cc(F)ccc1O)N1Cc2ccccc2C1=O (centres unmarked) is reported as ~0.0833 h (mouse FVB/NRj, female, plasma; oral, 20 mg/kg).
With COC(=O)N[C@H]1CC[C@@H](Nc2cc(NCc3ccccc3F)n3ncc(C(C)C)c3n2)CC1 the Tmax was 0.25 h (female BALB/c mouse, plasma; oral, 10 mg/kg).
With CCNC(=O)c1noc(-c2cc(C(C)C)c(O)cc2O)c1NC(=O)CCN1CCOCC1 the Tmax was ≤ 2 h (CD1 nude mouse A-431 xenograft, tumour; intraperitoneal, 80 mg/kg).
COc1ccc(-c2ccn(CC[C@](C)(C(=O)NO)S(C)(=O)=O)c(=O)c2)c(F)c1 gave a Tmax of 0.25 h (CF-1 mouse, female; subcutaneous, 18.75 mg/kg).
O=C1OC2(c3ccccc31)c1cc(I)c(O)c(I)c1Oc1c2cc(I)c(O)c1I has a Tmax of 0.25 h (C57BL/6 mouse, female, plasma; intraperitoneal, 50 mg/kg).
N=C(N)NCCC[C@@H]1NC(=O)[C@H](Cc2c[nH]c3ccccc23)NC(=O)[C@@H](CC2CCCCC2)NC(=O)[C@@H]2CCCN2C(=O)[C@@H](NC(=O)CCc2ccccc2)CCCNC1=O gave a Tmax of 0.238 h (C57BL/6J mouse, plasma; intraperitoneal, 1 mg/kg, single dose).
CCCCCCCCCCCCCCCC(=O)NCCOCCOCCOCCOCCOCCOCCOCCOCCC(=O)NCCCC[C@H](NC(=O)CNC(=O)[C@@H]1CSSC[C@H](N)C(=O)N[C@@H](Cc2ccc(O)cc2)C(=O)N[C@@H]([C@@H](C)CC)C(=O)N[C@@H](CCC(N)=O)C(=O)N[C@@H](CC(N)=O)C(=O)N1)C(=O)NCC(N)=O has a Tmax of 2 h (mouse, plasma; subcutaneous, 1 mg/kg).
COc1ccc(NC(=O)N2CCCCN3[C@H](CN(C)C)[C@H](c4ccc(C#Cc5ccccc5)cc4)[C@@H]3C2)cc1 has a Tmax of 8 h (CD-1 mouse, plasma; oral, 10 mg/kg, single dose).
For NC(=O)c1ccc(C(=O)NOCc2ccc(Sc3cccc(Cl)c3)c(C(F)(F)F)c2)cc1, the Tmax was 0.42 h (male ICR mouse, plasma; intraperitoneal, 30 mg/kg).
C[C@@H]1Cc2c([nH]c3ccccc23)[C@@H](c2c(F)cc(/C=C/C(=O)O)cc2F)N1C12CC(C1)C2 has a Tmax of 2 h (Balb/c nude mouse, MCF7 xenograft, tumour; oral, 10 mg/kg).
[11CH3]N1CCN(CCCOc2ccc(=O)n(-c3ccc(Cl)c(Cl)c3)n2)CC1 gave a Tmax of 0.25 h (radiotracer; mouse BALB/c male, spleen; intravenous).
With COc1ccc(NC(=O)N2CCCN3CCC(c4ccc(C#Cc5ccccc5)cc4)C3C2)cc1 (centres unmarked) the Tmax was 8 h (CD-1 mouse, brain; oral, 10 mg/kg, single dose).
Cc1[nH]nc2c1N=C(c1ccccc1Cl)c1cnc(N3CCOCC3)cc1N2 has a Tmax of 7 h (nude mouse, HCC1806 xenograft, tumour; oral, 15 mg/kg once daily).
With Cc1ccc(NC(=O)N2CCCN3CCC(c4ccc(C#CC5(O)CCCCC5)cc4)C3C2)cc1 (centres unmarked) the Tmax was 1 h (CD-1 mouse, plasma; oral, 10 mg/kg, single dose).
CC1(C)CC[C@@]2(CO)C(=C3C=C[C@@H]4[C@@]5(C)CC[C@H](O)[C@@](C)(CO)[C@@H]5CC[C@@]4(C)[C@]3(C)C[C@@H]2O)C1 gave a Tmax of 8 h (mouse, plasma; oral, 50 mg/kg of saikosaponin a).
The Tmax of CC(C)[C@H](CO)Nc1nc(Nc2ccc(C(=O)NCCNS(=O)(=O)c3cccc4c(N(C)C)cccc34)c(Cl)c2)c2ncn(C(C)C)c2n1 is reported as 4 h (mouse, pancreas and spleen; oral, 20 mg/kg).

Excerpt of the above:
[11CH3]N1CCN(CCCOc2ccc(=O)n(-c3ccc(Cl)c(Cl)c3)n2)CC1 gave a Tmax of 0.25 h (radiotracer; mouse BALB/c male, spleen; intravenous).
With COc1ccc(NC(=O)N2CCCN3CCC(c4ccc(C#Cc5ccccc5)cc4)C3C2)cc1 (centres unmarked) the Tmax was 8 h (CD-1 mouse, brain; oral, 10 mg/kg, single dose).
